Results collected from several papers.
Numbered parts are unrelated; each lists some results of a single study.

Study 1 — method: RNA Bind-n-Seq; form: RNA; matrix: in vitro; concentration: 100 nM; baseline: input RNA pool; direction: higher = stronger binding; quantity: bound/input enrichment
Target: RING finger protein unkempt homolog, zinc fingers 1-6, SBP tag (UNK, Homo sapiens, UniProt Q9C0B0, residues 30-357)
Chain of UniProt Q9C0B0 (30-357, looked up): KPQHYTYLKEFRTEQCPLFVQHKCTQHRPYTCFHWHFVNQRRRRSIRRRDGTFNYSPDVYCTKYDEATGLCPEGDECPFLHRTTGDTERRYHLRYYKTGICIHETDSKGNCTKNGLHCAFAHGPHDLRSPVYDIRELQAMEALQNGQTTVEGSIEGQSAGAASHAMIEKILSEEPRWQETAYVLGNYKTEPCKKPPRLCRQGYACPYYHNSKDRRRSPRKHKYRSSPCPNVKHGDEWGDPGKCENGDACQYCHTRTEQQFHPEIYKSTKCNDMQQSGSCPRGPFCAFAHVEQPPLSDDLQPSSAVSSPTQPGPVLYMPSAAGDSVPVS
Notes: RNA with constant flanks, vertebrate orthologous sites, ends assumed
Shared flanks, not repeated: GGGAGUUCUACAGUCCGACGAUC … CAACAGAGGAUUGAGCAUCA
AGAAAACUUUAACCAAGAAUCAGAAGGUAGAAAUACAGGACCAUGGUUGUCUUCCUCACUUAGAAAUAGAUGCACACCUUUGUUCUCUAGAAGGAGGCGAGAGGGAAGAGAUGAGUCUUC: 0.69 ratio
CCCUCUGAAUCCCAUUUCUUCUGUUUCAUAGUGCAGAAGUGUUCCUUUCAAUUUUAUUCUUAGUGGACUUGUUUUAAUUUUAGGGAAAUUUUCAGUACAGAUACUGUGAGCUUACAUGGA: 1.56 ratio
CGUAAAAUAUUGGAUGCAGUGUAUAAAUUGUCCAAGGCAGUGACUUCAGCUUUAUAUAUAUUGUUAAUUUUAAAGUCGUUUACUUUUAUUUAAACUUCUAGAUUGGACUGUUUGCUAUUG: 0.593 ratio
UAAAGUCAUUUUUUCACAUUUCCUGUAAAUAAUGGAUAAUCAUUUUUUUAUUUUAUUUUUAAGUGCUGUUUUAACAAUGUGGAUAGACCAUAAAUGUACUUGCUGAAUUCAUUCAUUUUU: 0.473 ratio
GUCGGAGCUACAUUUAGAGUGGAUUCUUCCUCACUUCCUCCAUGAAGAAAAAAGCCAGAGCACCUUCCUUACAGACUUGAUUUUGCCACUUUUGUUUCCUACAUUCACAUGUCUGUCACC: 0.818 ratio
UUACAGUCAUUGAUGGACUCUAUUUUUUUAUUAUUACUUGGACCUUGGUCGUUUUUAUACUAGCAACGAAAAAUGUCUUGUUUUAAUUUGUUUUUUGGGGGGUGCGGGGUGGGAAGUGUC: 0.646 ratio
UUCAUUGUACUGCAGAAAUCAUCCUUCAUCUGGACUAGCCACAGUAAUCACUGUCUCUACUAGUAGAGUCAUUUACUAUUACCUUUGAAAUCAUCUGUUUUGUCAGAUAUCUGAAAAUGU: 0.587 ratio
GUGUUUUGUACAGGCCAUUCUCUGUACUAGUUUGUUGUGGUUAUAAAACAAUUAGCAGAAUAGCCUACAUUUGUAUUUAUUUUCUAUUCCAUACUUCUGCCCAUGUUGUUUUCUCUCAGU: 1.74 ratio
CACUGACAGAUGAGCCACUCACGUCUGCCCGCGUGUGACGGAGGCAGCACUUGCCAGCCUGCAGGGUGGCUGCGGUACUUUUUCUGCUUCAGAGUCCCCAAAGCCUUCAAGCAGCGGGAC: 0.319 ratio
AGCAAGCCAAGGAUUCAGAACUGGUUUUACAAAUAUACCAAGUAGAUACGGAACUAACAGCAGAAUUGGACAAUCAAGACCAUGAUGGACACUUAACUUAUUUCUACGAGGAAUACUGAC: 0.576 ratio
AAUCAGUAGAAUUACAUAAUACUAAAGUUGCAGUUGAAAGGAUAUCCAAGUAUGUGUUGGUAGUUACUAAAGAAGUAUAGCUGGUAUUGCCUUGUAUUUAUAGCCCUUGUUUCAGGUUUC: 0.477 ratio

Study 2 — method: RNA Bind-n-Seq; form: RNA; matrix: in vitro; concentration: 20 nM; notes: 6-mer, flanks averaged, single round; together with: 150 mM KCl; baseline: input library; direction: higher = stronger binding; quantity: 6-mer enrichment (R)
Target: TAR DNA-binding protein 43, full length, His tag (TARDBP, Homo sapiens, UniProt Q13148, residues 1-414)
CGGACG: 1.54
UAAAUC: 0.584
CUAUAC: 0.565
CGCCGA: 0.817
GCAUUC: 0.615
CCAUUG: 0.665
GUGUGU: 2.16
CUACUG: 0.653
UUUAUG: 0.709
GUCUCU: 0.61
CCCACC: 0.628
AGUGAA: 0.961
GGUCGU: 1.29

Study 3 — method: RNA Bind-n-Seq; form: RNA; matrix: in vitro; concentration: 365 nM; baseline: no-protein control; direction: higher = stronger binding; quantity: RBNS enrichment (R)
Target: RNA binding protein fox-1 homolog 2, RRM domain, GST-SBP tag (RBFOX2, Homo sapiens, UniProt O43251-10, residues 100-194)
Notes: natural RNA segment, single round, ends assumed
Shared flanks, not repeated: GGGAGUUCUACAGUCCGACGAUC … UGGAAUUCUCGGGUGCCAA
Target sequence (chain): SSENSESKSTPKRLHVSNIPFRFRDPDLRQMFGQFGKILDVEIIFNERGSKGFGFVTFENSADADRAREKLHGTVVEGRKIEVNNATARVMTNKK
UUUGUCCUACCAGCCACAGCUCCAUAGACAGCAGCUGGCAGUAGAGCAAAAGUUGGGGAGAGGAUUUUGUUGUUUGCCUAGACUAGUCCUGAGGGAAGAAACACCACGUC: 0.419
UGGCUCAGGCGCUCCCUCCAGGAUUCUGCCCCUGCCUGUCCACAGACUCCUUUGUGCUGGAACCUGGGCUCCUCCAGCUGCCAGGCAGGAGUCGGUAGGACUGUGCCUGU: 1.64
UGAAGCCGUCCUUUGUAGGAUGUUUCUUGCCACUUACGCUGUACUGUAGUUGCUUAUUCUUUCUGCCUUCUGCUUCAGCGUGAGGCUUCUUUGGUUUUCUGUGGCAGCGU: 0.352
AUUUACUUUCCCAGGAGGUGGGUUUCUUCAGGUGUUUGUUUAAAGAGGGCUGUCACAGGUGAAUGGUUUGGGGAACCCUUCUUGGCAGAGUUUUAGCUGCCUUACUGAAC: 1.69
CUCAGGAAGACCCACCUCUAUACCAUCUAGGAAGUGGGCACUGACUUUAAAGCGCUCCAGCCAACAGCUGUAGGUGAGACCUGGGAGGGGAGGAACUGCACCAGCGCACA: 0.64
ACAUUGCAUUUAGAAAGCUUUUGUUCUUGGAUAAAAAGUCAUACACUUUAAAAAAAAAAAAAACUUUUUCCAGGAAAAUAUAUUGAAAUCAUGCUGCUGAGCCUCUAUUU: 0.566
GGGAGGGACAGAUGAUUCUGUGAUGGCAUGGGUAGUGGGUAGUGACAGCCAUGUCUGCGACGAUCAGCCUCUGGAGGCUGAAUGGGAAGCAGAGCUUUCGACCCACUCUA: 1.53
GGCCUCCUUCCUCUGCUGGUAUACUCAUGGACUCAUUCACUGCCAAGAUGACCAAAUACUCUACCACACUAACCAAGGAGCCCUCCCUAGCCCUGCAGUUCCCACCUUUG: 0.348
UUCUCAGAGAAACUGCCGAAAGUUGCAUUAAAAAAAAUAAAAAGUACAGAAGAAAUAGUUGCCACUGUCUAGGACAGUGCUGAAGCUAGGUGGUUAAACGGGUAACAGAA: 1.39
GCCUUUUGGACUUGAGUUUGUAUGUUCUGUAGGAACUACAUGCAUUCCUUUCACACAGUAUUUCAGGCUGCUGUGGUGAAUUUGAAUGGCAGAUCCUACAGUCAAUAGAU: 0.811
GUAUAUUUUGGGCACACAGUGAAAAGUGAGCCAUAGAUGGAGCUUCUUGCUGAUCACAUUGACACUGUCUGUGUUUGAUUUGCUGAGCUCUUGGAUGUUGGGAGUGUAGC: 0.402
GAAGGGCAGUAGAGGCGCAAGCUGGGUCCUGCUGGCCGGGGUAGCUCAGCUGUGACUUUGGACUCUGGAGUGGAUGUCCUCAUGUUAGCAAACGUCCACUGUCCUUUCUC: 0.287

Study 4 — method: protein binding microarray; form: double-stranded DNA, one strand shown; matrix: in vitro; concentration: not given; baseline: not given; direction: higher = stronger binding; quantity: E-score
Target: Histone acetyltransferase KAT6A, winged helix 2, GST fusion (KAT6A, Homo sapiens, UniProt Q92794, residues 85-181)
Notes: 8-mer, flanks averaged, mean of 2 arrays, mostly near background
Residues (chain): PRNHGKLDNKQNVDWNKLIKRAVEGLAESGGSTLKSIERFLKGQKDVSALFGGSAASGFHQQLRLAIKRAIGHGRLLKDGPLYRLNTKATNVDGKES
CAGTCTGC: -0.102
ACACCATA: -0.056
ACATCCGT: -0.0764
CTGGGGAC: -0.0737
CATGAAGG: -0.0544
CATTGGGA: -0.134
ATACCCAG: 0.0298
GTAGAAAC: 0.032
CCAATGAC: -0.14
CAACTTGA: 0.0507
ATCTATCA: 0.0842
TGCTGCCA: 0.046
ATTGCACA: 0.0724
ACCTACAG: -0.05
CGCTATAC: -0.0668
CCGAACAG: 0.0597
CCCAATCA: 0.00427
AAATAATT: 0.236
AAGTTGAC: 0.00404
CTAAGAGC: -0.0253
GCAACAGC: 0.0219
CAAGTCCG: -0.0676
GTTTATCA: 0.18
GGATCGTA: -0.158

Study 5 — method: protein-binding microarray; form: double-stranded DNA, one strand shown; matrix: in vitro; concentration: 2540 nM top; notes: 60-bp whole probe; together with: salmon DNA 0.4 mg/ml; baseline: random background probes; direction: higher = stronger binding; quantity: fitted relative affinity; shared flanks, not repeated: GCCTAGCAC … GTCTTGATTCGCTTGACGCTGCTG
Target: Interferon regulatory factor 3, full length, phosphomimetic (IRF3, Homo sapiens, UniProt Q14653, residues 1-427, S386D/S396D/S398D/S402D/T404D/S405D)
Construct (chain): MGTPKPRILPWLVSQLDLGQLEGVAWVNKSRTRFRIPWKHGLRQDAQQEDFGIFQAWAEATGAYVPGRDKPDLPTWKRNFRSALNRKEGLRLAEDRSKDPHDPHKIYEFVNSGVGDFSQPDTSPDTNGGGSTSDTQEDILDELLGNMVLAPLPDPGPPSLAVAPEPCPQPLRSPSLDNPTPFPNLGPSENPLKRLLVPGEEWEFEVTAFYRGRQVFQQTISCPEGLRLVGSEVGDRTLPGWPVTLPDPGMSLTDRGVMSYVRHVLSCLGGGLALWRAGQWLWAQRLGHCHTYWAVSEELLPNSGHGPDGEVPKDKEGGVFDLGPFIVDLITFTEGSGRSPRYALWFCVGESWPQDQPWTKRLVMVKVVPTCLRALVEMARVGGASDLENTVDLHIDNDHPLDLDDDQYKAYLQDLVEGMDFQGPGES
TTAGGTTTCCCTTTCCTTTAGTGCTAG: 10.1 z-score
TTAGGTTTCGGTTCCTGTTAGTGCTAG: 9.67 z-score
ATATATGTAATCATTCACCTGGTGCTA: 0.616 z-score
TTAGGTTTCGGACTGAGTTAGTGCTAG: 4.13 z-score
GACGGTCTCGGTCTGGGGACGTGCTAG: 0.381 z-score
TACGATATCAGTATCGAGACGTGCTAG: 1.22 z-score
CACGGTTTCGACACTGGGGACGTGCTA: 2.57 z-score
GACGGTCTCGGTTCCGGGACGTGCTAG: 2.56 z-score
TCAACTTCTCTTTTGGCACTGTGCTAG: 0.957 z-score
GACGGTTTCAGTATCGAGACGTGCTAG: 4.91 z-score
GACGGTTACCTTCTCCTGACGTGCTAG: 5.56 z-score
GACGGACAGGACACTGGGGACGTGCTA: -0.649 z-score
GATGAAGATGTAGAACTTTTGTGCTAG: -0.557 z-score
TTAGGTCTCGGTCTCGGGTAGTGCTAG: 0.893 z-score
TCATGGGTCTTGTCTGGAACTGTGCTA: -0.853 z-score
TTAGAACTGGGGACTCGATTAGTGCTA: -0.774 z-score
TTAGATATCCTTTTCCTTTAGTGCTAG: 5.6 z-score
TCAGCTTCCTCTTTCACACTGTGCTAG: 1.88 z-score
GACGGTTCCCTTTTCCTGCCGTGCTAG: 5.82 z-score
TATTTTTTTTATTTATAAATGTGCTAG: 1.36 z-score
TCAGTTTTGAGCTCTGTCACTGTGCTA: 0.932 z-score
ACTAGTTTCCATTTTCAGAAGTGCTAG: 9.85 z-score
GACGTTATCGGTATCGGGACGTGCTAG: 2.43 z-score
TTAGGTATCCCACTGCTTTAGTGCTAG: 1.95 z-score
CAAATACTCTTCCATGGAGAAGTGCTA: 1.94 z-score

A few entries again (study 1):
CGUAAAAUAUUGGAUGCAGUGUAUAAAUUGUCCAAGGCAGUGACUUCAGCUUUAUAUAUAUUGUUAAUUUUAAAGUCGUUUACUUUUAUUUAAACUUCUAGAUUGGACUGUUUGCUAUUG: 0.593 ratio
UUCAUUGUACUGCAGAAAUCAUCCUUCAUCUGGACUAGCCACAGUAAUCACUGUCUCUACUAGUAGAGUCAUUUACUAUUACCUUUGAAAUCAUCUGUUUUGUCAGAUAUCUGAAAAUGU: 0.587 ratio
UAAAGUCAUUUUUUCACAUUUCCUGUAAAUAAUGGAUAAUCAUUUUUUUAUUUUAUUUUUAAGUGCUGUUUUAACAAUGUGGAUAGACCAUAAAUGUACUUGCUGAAUUCAUUCAUUUUU: 0.473 ratio
CACUGACAGAUGAGCCACUCACGUCUGCCCGCGUGUGACGGAGGCAGCACUUGCCAGCCUGCAGGGUGGCUGCGGUACUUUUUCUGCUUCAGAGUCCCCAAAGCCUUCAAGCAGCGGGAC: 0.319 ratio
GUCGGAGCUACAUUUAGAGUGGAUUCUUCCUCACUUCCUCCAUGAAGAAAAAAGCCAGAGCACCUUCCUUACAGACUUGAUUUUGCCACUUUUGUUUCCUACAUUCACAUGUCUGUCACC: 0.818 ratio
AGCAAGCCAAGGAUUCAGAACUGGUUUUACAAAUAUACCAAGUAGAUACGGAACUAACAGCAGAAUUGGACAAUCAAGACCAUGAUGGACACUUAACUUAUUUCUACGAGGAAUACUGAC: 0.576 ratio
